# Experimental data pooled from the literature.
# Numbered parts are unrelated; each lists some results of a single study.

# Set 1
# Target: Myc proto-oncogene protein, bHLH-zipper, MAX partner unstated (MYC, Homo sapiens, UniProt P01106, residues 368-449)
# UniProt P01106, sequence (368-449, looked up): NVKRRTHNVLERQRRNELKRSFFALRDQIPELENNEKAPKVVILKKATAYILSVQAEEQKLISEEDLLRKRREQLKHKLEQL
# Technique: protein-binding microarray
# Form: double-stranded DNA, one strand shown
# Medium: in vitro
# Concentration: not given
# Setting: k-mer, scored over probes, only values ≥0.25
# Direction: higher = stronger binding
Oligonucleotide,E-score
CCCGCCAC,0.333
GCGTGAGC,0.308
ACGCGGAG,0.263
CCTCGCGC,0.252
CATATGCG,0.377
AACGTGGA,0.408
CTCGCGGC,0.275
TGCGGCAA,0.28
GTGTGGGA,0.317
TCGCCACA,0.312

# Set 2
# Target: Interferon regulatory factor 3, full length, phosphomimetic (IRF3, Homo sapiens, UniProt Q14653, residues 1-427, S386D/S396D/S398D/S402D/T404D/S405D)
# UniProt Q14653, sequence (whole entry, unmodified, looked up): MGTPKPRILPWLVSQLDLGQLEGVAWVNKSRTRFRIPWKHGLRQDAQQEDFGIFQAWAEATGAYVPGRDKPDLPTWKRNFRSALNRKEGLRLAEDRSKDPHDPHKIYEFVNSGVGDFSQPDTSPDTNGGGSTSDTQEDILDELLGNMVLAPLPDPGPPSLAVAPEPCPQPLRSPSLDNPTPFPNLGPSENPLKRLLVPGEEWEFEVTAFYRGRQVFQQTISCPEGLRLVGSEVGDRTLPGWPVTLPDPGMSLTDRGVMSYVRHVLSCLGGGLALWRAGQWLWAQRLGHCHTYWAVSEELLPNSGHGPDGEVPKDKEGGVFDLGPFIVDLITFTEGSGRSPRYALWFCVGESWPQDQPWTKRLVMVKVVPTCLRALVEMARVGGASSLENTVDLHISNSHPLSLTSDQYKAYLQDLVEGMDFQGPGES
# Technique: protein-binding microarray
# Form: double-stranded DNA, one strand shown
# Medium: in vitro
# Concentration: 2540 nM top
# Setting: 60-bp whole probe
# With: salmon DNA 0.4 mg/ml
# Baseline: random background probes
# Direction: higher = stronger binding
# All sequences stand within: GCCTAGCAC … GTCTTGATTCGCTTGACGCTGCTG
Oligonucleotide,fitted relative affinity
CACGATATCAGTATCGAGACGTGCTAG,1.22 z-score
TTAGATTTCAGTATCAATTAGTGCTAG,2.25 z-score
AACGGTTTCCTACTGCTGACGTGCTAG,5.58 z-score
TTAGGTATCCTTCTCCTTTGGTGCTAG,6.69 z-score
GACGACCTGAGTATCGAGACGTGCTAG,-0.336 z-score
TTAGGTATCCTTTTCCTTTCGTGCTAG,8.38 z-score
TTAGAACAGGGGTTTCGATTAGTGCTA,1.57 z-score
GACGATATCGGGTTTCAAGACGTGCTA,0.66 z-score
TGGGAGCTCAGGAATCCCACGTGCTAG,-0.818 z-score
TTAGATCTCAGTATCCATTAGTGCTAG,1.54 z-score
TCACCCCTCAGATCTGCCACTGTGCTA,0.158 z-score

# Set 3
# Target: Histone acetyltransferase KAT6A, winged helix 2, GST fusion (KAT6A, Homo sapiens, UniProt Q92794, residues 85-181)
# Technique: protein binding microarray
# Form: double-stranded DNA, one strand shown
# Medium: in vitro
# Concentration: not given
# Setting: 8-mer, flanks averaged, mean of 2 arrays, mostly near background
# Baseline: not given
# Direction: higher = stronger binding
# Residues (chain): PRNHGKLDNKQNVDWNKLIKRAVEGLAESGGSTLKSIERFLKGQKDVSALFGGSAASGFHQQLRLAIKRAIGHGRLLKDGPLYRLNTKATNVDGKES
Oligonucleotide,E-score
CGGTTACC,0.0385
CCCTTGAA,-0.168
AGATGTCC,-0.189
GACTCTAC,-0.17
GCAAAACA,-0.14
CGTGCGTA,0.0824
GCACCGAC,0.129
TACAAACA,0.0736
TCCTTACA,-0.254
AAAGCGCT,0.274
ATGAGGTA,-0.0626
ACTAGAAC,-0.0477

# Mixed results
Substance,target,test,test system,setting,how to read,endpoint,value
"PhoQ, residues 284 288 289 292 302 303 SCCLKL","PhoP, residues 12 14 15 18 19 AQALL (Escherichia coli, UniProt P23836)","Sort-seq, item: YFP reporter",E. coli,"PhoQ-PhoP variant library, with: 10 µM Mg2+","baseline: high Mg2+ state, higher = stronger signaling",fold induction,7.49

# Excerpt of the above (mixed results):
Substance,target,test,test system,setting,how to read,endpoint,value
"PhoQ, residues 284 288 289 292 302 303 SCCLKL","PhoP, residues 12 14 15 18 19 AQALL (Escherichia coli, UniProt P23836)","Sort-seq, item: YFP reporter",E. coli,"PhoQ-PhoP variant library, with: 10 µM Mg2+","baseline: high Mg2+ state, higher = stronger signaling",fold induction,7.49
